Results gathered from unrelated publications.
Parts stem from different laboratories: compare values within a part only. Positions count from the first letter of the parent shown.

Study 1 — method: RNA Bind-n-Seq; form: RNA; sample: in vitro; tested at: not given; relative to: input RNA pool; reading: higher = stronger binding
Target: RING finger protein unkempt homolog, zinc fingers 1-6, GST-SBP tag (UNK, Homo sapiens, UniProt Q9C0B0, residues 30-357)
Setting: RNA with constant flanks, human-mouse chimeric sites, ends assumed
Shared flanks, not repeated: GGGAGUUCUACAGUCCGACGAUC … CAACAGAGGAUUGAGCAUCA
Target sequence (chain): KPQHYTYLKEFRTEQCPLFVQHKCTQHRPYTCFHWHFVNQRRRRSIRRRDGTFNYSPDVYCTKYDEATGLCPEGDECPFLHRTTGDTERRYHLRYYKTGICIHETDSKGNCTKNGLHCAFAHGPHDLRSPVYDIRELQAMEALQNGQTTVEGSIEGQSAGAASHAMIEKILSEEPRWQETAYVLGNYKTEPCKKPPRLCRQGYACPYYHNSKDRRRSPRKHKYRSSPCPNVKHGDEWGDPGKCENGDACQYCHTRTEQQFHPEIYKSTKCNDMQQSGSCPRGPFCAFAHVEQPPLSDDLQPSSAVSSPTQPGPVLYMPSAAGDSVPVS
| Sequence | bound/input enrichment |
| --- | --- |
| GAUCCACAGUGGUCUGAGGAGCAACUCAUUGCUGCAAAAUUUUGCUUUGCUGGCCUUCUUAUAGGCCAGACUGAAGUGGACAUCAUGAGUCAUGCCACACAAGCUAUUUUUGAAAUUCUG | 0.17 ratio |
| UCUGGUCACACUCGUGUAUAUGGUGUGUGCUUUGUGGACACUUCACUGGGCAAGUUUUUCAUCGGCCAGUUUUCGGAUGACCGCCACUGUUCGAGAUUUAGGACGCUAGUGGCUCACUAU | 0.256 ratio |
| CUGUUUUGACAGCCACACAAUCUUGGCAUGUAUUAAGGAAAAAAAAAAUCCCUGUUGAAGUAGUUUUUCCACCUAUCAGCACUGAGUAAAUGCCAUAAAUCCAUUGAAAUGGUCUAAAUA | 0.286 ratio |
| GGCCUGGGACCGUCCUGGGCUAGUACAAAUAGCGGCAUGGAGGCUCAGAGAGGAAAGUUUGUUAGUGGAGGCAGUGGUAGAGGCCGUCAUGUACGGUCCUUUACUCGUAAAAAUCCUUCU | 0.244 ratio |
| UUAAUCCCCUUUACUGCUCCACCACUGCUCAUGGUAAUAACAAAGUCUUAUAUCCCCGUCCUAGCUUUUACUCAGAUGGCUUAUGGAGCCGGUUUCCUAGCUUUCUUGGGAGGGAUCAGA | 0.571 ratio |
| CCCUCCCCGGGCCACCCGCCCGCCCAAGCUCCCCGCCGAGAUCCAGGUUUCUUCUGUUUUCAUAGCAAAUAAGAAAAAUGUUCUACGCACAUUUUGUCCUCAGUAAACGAGGGCCUCUGG | 0.843 ratio |
| GUGCCCUUCUCGCUGCUCCUGCGGGGCAGCUGGGAACCAUUCCGGGACUGGUACCCUGCACACAGCCGCCUCUUCGAUCAAGCUUUCGGGCUGCCCCGGUUGCCCGAUGAGUGGUCGCAG | 0.0448 ratio |
| CACAGAGGAGAUCUGCUGUUCCUCACAAAUUUCCGGGAGGACCCCAUCAGAGCUGGUGAAAUAGUUGUUUUUAAGGUUGAAGGACGAGACAUUCCGAUAGUUCACAGAGUAAUCAAGGUU | 4.1 ratio |

Study 2 — target: CCNE2, cyclin fold, Cln2 fusion (human); method: yeast growth competition, sequencing; sample: yeast; setting: strong parent motif; relative to: not given; reading: higher = stronger binding
Parent: E2F2 docking peptide (human); LPAKRKLDLEGIG; partner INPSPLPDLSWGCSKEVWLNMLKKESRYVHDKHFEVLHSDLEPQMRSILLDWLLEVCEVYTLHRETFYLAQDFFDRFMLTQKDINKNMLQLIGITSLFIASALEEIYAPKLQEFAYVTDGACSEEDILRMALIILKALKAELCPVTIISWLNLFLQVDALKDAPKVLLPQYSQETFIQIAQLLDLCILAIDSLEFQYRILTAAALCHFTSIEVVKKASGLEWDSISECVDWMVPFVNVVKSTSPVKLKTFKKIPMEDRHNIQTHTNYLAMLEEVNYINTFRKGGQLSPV
| Variant | normalised enrichment score |
| --- | --- |
| I12A | 0.857 |
| R5A | 1.08 |
| E10A | 0.492 |
| G13A | 1.23 |
| P2A | 0.749 |
| R5K | 0.0617 |
| L9F | 5.17 |
| R5A L7A | 0.55 |
| L9A | 0.407 |

Study 3 — method: protein-binding microarray; form: double-stranded DNA, one strand shown; sample: in vitro; tested at: 2540 nM top; setting: 60-bp whole probe; together with: salmon DNA 0.4 mg/ml; relative to: random background probes; reading: higher = stronger binding; shared flanks, not repeated: GCCTAGCAC … GTCTTGATTCGCTTGACGCTGCTG
Target: Interferon regulatory factor 3, full length, phosphomimetic (IRF3, Homo sapiens, UniProt Q14653, residues 1-427, S386D/S396D/S398D/S402D/T404D/S405D)
Residues (chain): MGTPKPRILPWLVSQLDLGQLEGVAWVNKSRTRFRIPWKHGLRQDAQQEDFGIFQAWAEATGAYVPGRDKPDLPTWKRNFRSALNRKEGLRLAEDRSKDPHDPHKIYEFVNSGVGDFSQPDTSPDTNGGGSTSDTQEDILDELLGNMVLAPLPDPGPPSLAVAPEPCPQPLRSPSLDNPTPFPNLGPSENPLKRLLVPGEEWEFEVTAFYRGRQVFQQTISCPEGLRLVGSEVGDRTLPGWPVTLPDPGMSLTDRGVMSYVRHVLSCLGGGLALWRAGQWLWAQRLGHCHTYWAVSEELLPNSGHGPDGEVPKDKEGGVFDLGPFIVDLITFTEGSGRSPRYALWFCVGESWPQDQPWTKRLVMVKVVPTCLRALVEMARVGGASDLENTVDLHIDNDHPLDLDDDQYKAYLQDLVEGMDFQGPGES
| Sequence | fitted relative affinity [z-score] |
| --- | --- |
| TTAGAACTGGAGTTTCGATTAGTGCTA | 2 |
| TCATCTAAAAAGTCTCTGACTGTGCTA | 0.0562 |
| GACGGTATCGGTATCGAGACGTGCTAG | 4.26 |
| TTAAAACTGGGGTATCGATTAGTGCTA | -0.285 |
| GAAGCCCTCCCTGTGGGGGGGTGCTAG | -0.291 |
| GAGGGTTTCGGTATCGGGACGTGCTAG | 6.98 |
| TTAGAAATCAGTATCGATTAGTGCTAG | 1.34 |
| GACGATATCATACTGGAGACGTGCTAG | 0.376 |
| GACGGGTCCGGTTTCGGGACGTGCTAG | 3.17 |
| CTAATTAGAATTTTCATTAAGTGCTAG | 2.02 |
| TTACGTATCCTACTGCTTTAGTGCTAG | 2.27 |
| TCTTTTTGCTTTCTTTTATGGTGCTAG | 2.73 |
| TTAGACCTGAGTTTCGATTAGTGCTAG | 2.24 |
| TTAGATAACAGTATCGATTAGTGCTAG | 0.744 |
| GACGGACTGGCCTTTCGGGACGTGCTA | -0.575 |
| GCCGGACTGGACTTTCGGGACGTGCTA | 0.261 |

Study 4 — target: UBE2L3 UBC core domain (UniProt P68036); method: yeast two-hybrid; sample: yeast; setting: mostly zero background; relative to: not given; reading: higher = stronger interaction
UniProt P68036, sequence (whole entry, looked up): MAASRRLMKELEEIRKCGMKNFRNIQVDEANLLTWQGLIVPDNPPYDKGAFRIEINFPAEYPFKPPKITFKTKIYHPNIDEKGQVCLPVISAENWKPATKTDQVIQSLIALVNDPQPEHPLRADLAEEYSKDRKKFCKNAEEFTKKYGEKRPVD
B1: TRIM35 RING domain (UniProt Q9UPQ4); chain PSRSFKEELLCAVCYDPFRDAVTLRCGHNFCRGCVSRCWEVQVSPTCPVCKDRASPADLRT
B2: UBE4A RING domain (UniProt Q14139); chain LQQQEEETYADACDEFLDPIMSTLMCDPVVLPSSRVTVDRSTIARHLLSDQTDPFNRSPLTMDQIRPNTELKEKIQRWLAERKQQKEQLE
B3: TRIM3 RING domain (UniProt O75382); chain VQPMDKQFLVCSICLDRYQCPKVLPCLHTFCERCLQNYIPAQSLTLSCPVCRQTSILPEQGV
B4: RNF4 RING domain (UniProt P78317); chain TGLRPSGTVSCPICMDGYSEIVQNGRLIVSTECGHVFCSQCLRDSLKNANTCPTCRKKINHKRYHP
B5: RNF43 RING domain (UniProt Q68DV7); chain SGSSCSSAPVCAICLEEFSEGQELRVISCLHEFHRNCVDPWLHQHRTCPLCMFNITEGDSFS
B6: TRIM55 RING domain (UniProt Q9BYV6); chain TMDNLEKQLICPICLEMFTKPVVILPCQHNLCRKCASDIFQASNPYLPTRGGTTMASGGRFRCPSCRHEVVLDRHG
B7: PHF7 RING domain (UniProt Q9BWX1); chain IQHGHVGEESCILCCEDLSQQSVENIQSPCCSQAIYHRKCIQKYAHTSAKHFFKCPQCNNRKEFPQEML
B8: TRIM10 RING domain (UniProt Q9UDY6); chain SVTSLADEVNCPICQGTLREPVTIDCGHNFCRACLTRYCEIPGPDLEESPTCPLCKEPFRPGSFRP
B9: RNF112 RING domain (UniProt Q9ULX5); chain QPMAPRELPTCSICLERLRDPISLDCGHDFCIRCFSTHRLPGCEPPCCPECRKICKQKRGLR
B10: RNF14 RING domain (UniProt Q9UBS8); chain IKCFNSKLFLCSICFCEKLGSECMYFLECRHVYCKACLKDYFEIQIRDGQVQCLNCPEPKCPSVATPGQVK
| Sequence | lacZ reporter activity |
| --- | --- |
| B1 (TRIM35 RING domain) | 0 |
| B2 (UBE4A RING domain) | 0 |
| B3 (TRIM3 RING domain) | 0 |
| SYEDKSNDFVCPICFDMIEEAYMTKCGHSFCYKCIHQSLEDNNRCPKCNYVVDNIDHLY (COP1 RING domain (UniProt Q8NHY2)) | 0 |
| B4 (RNF4 RING domain) | 2060 |
| B5 (RNF43 RING domain) | 0 |
| B6 (TRIM55 RING domain) | 0 |
| B7 (PHF7 RING domain) | 0 |
| B8 (TRIM10 RING domain) | 0 |
| B9 (RNF112 RING domain) | 0 |
| B10 (RNF14 RING domain) | 0 |

Some of these lines once more (study 3):
| Sequence | fitted relative affinity [z-score] |
| --- | --- |
| CTAATTAGAATTTTCATTAAGTGCTAG | 2.02 |
| TTAAAACTGGGGTATCGATTAGTGCTA | -0.285 |
| GAAGCCCTCCCTGTGGGGGGGTGCTAG | -0.291 |
